Results gathered from unrelated publications.
Parts stem from different laboratories: compare values within a part only.

Series 1
Target: Transcriptional repressor CTCF (CTCF, Homo sapiens, UniProt P49711, residues 1-727, full length assumed)
Method: protein-binding microarray
Molecule type: double-stranded DNA, one strand shown
Medium: in vitro
Concentration: not given
Setting: k-mer, scored over probes, only values ≥0.25
Direction: higher = stronger binding
Construct (chain): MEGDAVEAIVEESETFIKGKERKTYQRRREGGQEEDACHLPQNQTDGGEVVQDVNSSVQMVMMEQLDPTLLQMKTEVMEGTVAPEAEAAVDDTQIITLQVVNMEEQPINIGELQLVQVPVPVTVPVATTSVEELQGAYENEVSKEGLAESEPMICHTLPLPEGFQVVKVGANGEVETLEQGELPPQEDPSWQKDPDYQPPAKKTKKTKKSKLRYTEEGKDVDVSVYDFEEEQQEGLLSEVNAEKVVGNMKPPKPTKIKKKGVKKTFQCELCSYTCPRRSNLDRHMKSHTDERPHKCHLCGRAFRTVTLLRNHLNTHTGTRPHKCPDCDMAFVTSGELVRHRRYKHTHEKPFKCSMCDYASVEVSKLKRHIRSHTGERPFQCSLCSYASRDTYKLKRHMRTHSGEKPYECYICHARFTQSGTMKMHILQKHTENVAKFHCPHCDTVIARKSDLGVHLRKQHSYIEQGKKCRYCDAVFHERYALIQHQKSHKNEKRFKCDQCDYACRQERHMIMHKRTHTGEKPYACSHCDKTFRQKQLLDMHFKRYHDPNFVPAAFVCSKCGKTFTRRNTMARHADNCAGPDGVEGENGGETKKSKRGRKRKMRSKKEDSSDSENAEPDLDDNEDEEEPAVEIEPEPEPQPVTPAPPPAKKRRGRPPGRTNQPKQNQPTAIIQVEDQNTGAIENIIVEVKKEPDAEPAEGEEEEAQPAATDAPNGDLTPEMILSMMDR
`ATAGTAAA` gave an E-score of 0.267.
`ATATTCGC` has an E-score of 0.283.
`ATATGAAT` has an E-score of 0.26.
With `ATGTTGCG` the E-score was 0.278.
For `AAATTACC`, the E-score was 0.29.
`AAAAGCGC` has an E-score of 0.293.
With `ATAAGCAA` the E-score was 0.261.
With `ATGTGCAA` the E-score was 0.255.
`GTTATACA` has an E-score of 0.294.
With `CATTCATA` the E-score was 0.37.
`GTCGCGCA` gave an E-score of 0.251.
`CACAAATA` has an E-score of 0.336.
With `AAATTGCG` the E-score was 0.306.
`TATAACGA` has an E-score of 0.302.
For `AACATTAC`, the E-score was 0.295.
`ATACCTAG` has an E-score of 0.255.
For `AATTTCGC`, the E-score was 0.275.

Series 2
Target: Histone acetyltransferase KAT6A, both winged helices, GST fusion (KAT6A, Homo sapiens, UniProt Q92794, residues 1-181)
Method: protein binding microarray
Molecule type: double-stranded DNA, one strand shown
Medium: in vitro
Concentration: not given
Setting: 8-mer, flanks averaged, mean of 2 arrays, mostly near background
Baseline: not given
Direction: higher = stronger binding
Construct (chain): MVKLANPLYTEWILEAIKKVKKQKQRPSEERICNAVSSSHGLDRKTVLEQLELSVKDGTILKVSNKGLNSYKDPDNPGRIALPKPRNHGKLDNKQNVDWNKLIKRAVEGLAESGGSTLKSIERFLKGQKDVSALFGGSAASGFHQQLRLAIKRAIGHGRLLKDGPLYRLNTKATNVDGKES
For `CGATGCCG`, the E-score was 0.327.
For `AGTCTAAA`, the E-score was -0.254.
`CAAAAGGC` has an E-score of -0.0128.
`ATCTCTTG` gave an E-score of -0.165.
For `AATGCCAT`, the E-score was 0.0382.
`GCATTCAA` has an E-score of -0.0598.
The E-score of `CAAGGAGA` is reported as -0.133.
For `AAAAGTCG`, the E-score was -0.116.
The E-score of `CCTTGAGA` is reported as -0.155.
With `ATGAGTTA` the E-score was -0.0736.
The E-score of `AACAGGCA` is reported as -0.0132.
With `CTTTCTTA` the E-score was -0.0344.
For `ACCAACCG`, the E-score was 0.0502.
`ACCTGACT` gave an E-score of -0.088.
With `CGGGTTGC` the E-score was 0.235.
For `GGATTATA`, the E-score was -0.0439.
`GCGGCCCA` has an E-score of 0.21.
For `GAGAAGAC`, the E-score was -0.0607.

Series 3
Target: RING finger protein unkempt homolog, zinc fingers 1-6, GST-SBP tag (UNK, Homo sapiens, UniProt Q9C0B0, residues 30-357)
Method: RNA Bind-n-Seq
Molecule type: RNA
Medium: in vitro
Concentration: not given
Setting: RNA with constant flanks, human and mouse sites, ends assumed
Baseline: input RNA pool
Direction: higher = stronger binding
Target sequence (chain): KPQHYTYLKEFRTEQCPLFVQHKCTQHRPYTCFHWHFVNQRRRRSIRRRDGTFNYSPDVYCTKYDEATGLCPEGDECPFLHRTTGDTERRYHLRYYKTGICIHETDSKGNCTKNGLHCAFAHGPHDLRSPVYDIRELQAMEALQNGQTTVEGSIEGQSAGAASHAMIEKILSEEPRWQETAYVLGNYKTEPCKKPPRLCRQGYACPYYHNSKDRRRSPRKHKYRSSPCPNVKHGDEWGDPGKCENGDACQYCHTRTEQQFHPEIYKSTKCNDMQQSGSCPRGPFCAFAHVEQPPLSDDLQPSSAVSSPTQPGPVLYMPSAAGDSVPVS
For `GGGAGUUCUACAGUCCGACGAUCGAACUGCUACAACUAACAAACAUUUGUUUCCAAGCCUGUCAUUAAGAGUCUGCAUCAAGAGAUUUGUCCUCCUUGGGGGACCACUGGAUCAUUCCAGAUUUCUUGUGAUUUUUCUAUUGUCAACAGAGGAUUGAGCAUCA`, the bound/input enrichment was 0.0822 ratio.
With `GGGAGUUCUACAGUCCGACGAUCACUUUUGCGGAUGAGUUGGUGGAGCUCAGCACAGCCCUGGAGCACCAGGAAUAUAUCACCUUUCUUGAGGACCUCAAAAGCUUUGUCAAGAACCAGUAGAACUCAGAGACUGCGGGCCUUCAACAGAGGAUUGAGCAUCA` the bound/input enrichment was 0.338 ratio.
For `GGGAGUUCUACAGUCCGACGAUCGGGGAGCCGCCCGGUGCCCGUGUGUCCGUUCCUCCACUCAUCUGUUUCUCCGGUUCUCCCUGUGCCCAUCCACCGGUUGACCGCCCAUCUGCCUUUAUCAGAGGGACUGUCCCCGUCGACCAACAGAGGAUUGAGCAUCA`, the bound/input enrichment was 0.121 ratio.
`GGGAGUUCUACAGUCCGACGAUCGAUGUGGGAGCCGCCGCCGCCACCGCGCACAACGGCUUCUCCUGCAGCAACUGCAGCAUGCUGUCCGAGCGCAAGGACGUGCUCACGGCGCACCCCGCGGCCCCCGGGCCCGUGUCGAGACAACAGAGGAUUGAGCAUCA` has a bound/input enrichment of 0.0848 ratio.
The bound/input enrichment of `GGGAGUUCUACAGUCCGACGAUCCCUGUUGCUUUUGCUUGCUUCUCCAUUUAAUAGUUACUGAACUUUAUGCAUGUUGAUCUAUAUUGAUUUUCACUGCAGUUGAAUGAACAAAUUAUUUCAGUGUGACAGCCAUGACUCAAGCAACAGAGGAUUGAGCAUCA` is reported as 0.168 ratio.
The bound/input enrichment of `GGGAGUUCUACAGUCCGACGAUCCACGGCUGAUUCGCUCAUCGGAAGAGCUGCACACAUAGCUGUUCUUGAUUCUGAGAUAUUUUUAGAGAAGUUUUUCCUGGUUGCCGCCCUCAAAUAUUUUCAGUAGGACCGAAGCAUCAUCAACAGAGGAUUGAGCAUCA` is reported as 1.07 ratio.
`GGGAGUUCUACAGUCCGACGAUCAUUUUUGCAAGUUUGGCUUUAUAUGAUGUCAAGGAGAAGAAAAAGAUUUCCGAGAAUUUUUAUUUCGACCUUAAUUCAGAGCAGAUGAAGGGACUGUUACGACCGCAUGUGCCCCCUGCUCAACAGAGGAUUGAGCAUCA` gave a bound/input enrichment of 0.16 ratio.
`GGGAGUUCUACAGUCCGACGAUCUCAGGAUACUGUAGUUUCCUCUAUCUAAUAGAGAACUUUUUGUUAACAGACACUGUAAAAUAGUUUUGCUUUGUUGAAUAAUACGUGUGUACCUAAAAGAGGUAAGAGCAAAAAGUGUAACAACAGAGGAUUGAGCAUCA` has a bound/input enrichment of 0.51 ratio.
`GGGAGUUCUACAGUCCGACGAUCACCGCCCGGGUCGUGGAGCCAGGAGCGACGUCACCGCCAUGGCGGGCAUCAAAGCUUUAAUUAGUUUGUCCUUUGGAGGAGCGAUCGGGCUGAUGUUCCUGAUGCUUGGAUGUGCCCUUCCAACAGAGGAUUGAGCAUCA` gave a bound/input enrichment of 0.11 ratio.
The bound/input enrichment of `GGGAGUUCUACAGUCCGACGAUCACUUUCUGCGGGUGGGGGUCACUUUGUGUGCGUGGACUGUGGGAAGAGGUUCAGCUGGUGGUCGUCCCUGAAGAUUCACCAGCGCACACACACAGGUGAGAAGCCUUACCUCUGUGGCAACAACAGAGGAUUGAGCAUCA` is reported as 0.251 ratio.
`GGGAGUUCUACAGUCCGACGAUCGCAUAUGGUUAUCGAGGAAAGGACUGUAGAGCUAAUGUUUACCUUCUUCCGACCGGGAAAAUAGUUUAUUUCAUUGCAUCAGUAGUAGUACUAUUUAAUUAUGAGGAGAGAACUCAGCGACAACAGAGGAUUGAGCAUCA` has a bound/input enrichment of 3.35 ratio.

Series 4
Target: RNA binding protein fox-1 homolog 2, RRM domain, GST-SBP tag (RBFOX2, Homo sapiens, UniProt O43251-10, residues 100-194)
Method: RNA Bind-n-Seq
Molecule type: RNA
Medium: in vitro
Concentration: 365 nM
Setting: natural RNA segment, single round, ends assumed
Baseline: no-protein control
Direction: higher = stronger binding
Target sequence (chain): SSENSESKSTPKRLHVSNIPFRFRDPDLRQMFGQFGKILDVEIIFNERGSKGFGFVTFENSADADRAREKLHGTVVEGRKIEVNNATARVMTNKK
`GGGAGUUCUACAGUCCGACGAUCCCUUGCCACUCAGGGUUUUAGUGGGUGCUCCCACUGCUCAGUGUACCCAUGAGCUGUCGUCAUUCACAGAGCCCUGUGCCAGGCCGUGUUCUGUGCCUGCCUGCGGUGAUUGGAAUUCUCGGGUGCCAA` — result for “RBNS enrichment (R)”: 0.425.
`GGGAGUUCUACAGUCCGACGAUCCUCUCACAGGGGUAAUCAUCUCAAGUGGUAUUUGUAGCCAAGUGGGAGCUAUUUUCUUUUUUGUGCAUAUAGAUAUUUCUUAAAUGAAGCUGCUUUCUUGUCUUUUAUUUUGGAAUUCUCGGGUGCCAA` — result for “RBNS enrichment (R)”: 0.751.
Under “RBNS enrichment (R)”, `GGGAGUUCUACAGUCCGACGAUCAUGGUAUAGCCUACUACACACCUGGGCUGUGUGGCAUGGCCUAUUCCUCUUAGGCUACAAACCUGUACAGCAUGUUACUGUACUGAACACAAUGGUAAGUAUUUGUGUAUUGGAAUUCUCGGGUGCCAA` is recorded as 2.72.
`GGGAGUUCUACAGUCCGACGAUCAGUUUUAAUGUAGAAAGACAUUUACAUAUAAGUCUGUUUAAUUUCAAAGGAGUUUGUGAAAAAAAAUCCAUGGUGAAAAUGAAACAAUGACAUGGUUAAUCUGGAACUUAUGGAAUUCUCGGGUGCCAA`: “RBNS enrichment (R)” 0.435.
`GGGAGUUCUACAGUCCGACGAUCAGAUGGCCAUAGGGGACAGCACACUUGAUGGUUGUUGCCGAAGUAUUUUCUAACAGAAACUCUUAGGUGGAAUGUUUCUGAAGGCUUUAAAAAAAAUACAAUAAAGUAAAUGGAAUUCUCGGGUGCCAA`: “RBNS enrichment (R)” 0.542.
`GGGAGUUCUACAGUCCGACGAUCUAAGUUAAAUUUUAAACAAUUUGAUUGUUUGCCAUAUUGGGUGGGGUUACUCUUAGAAUCGCAUGCUGUAGAAAUGCUCUAAAGUGCAUAUAGGACUCAGUCCUUAGAUGUGGAAUUCUCGGGUGCCAA` — result for “RBNS enrichment (R)”: 1.64.
`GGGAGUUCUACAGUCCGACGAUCCCUAAGAAAAAAAGUCCGCGAGUAUUAAAUAUUUAGAUCAAUGUUUAUAAAAUGAUUACUUUGUAUAUCUCAUUAUUCCUAUUUUGGAAUAAAAACUGACCUUCUUUAAUUGGAAUUCUCGGGUGCCAA` — result for “RBNS enrichment (R)”: 0.709.
Under “RBNS enrichment (R)”, `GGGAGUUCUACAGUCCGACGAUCUCAAACAGCAUCUUGCUCAGUUCUGUGAACAGAAGGCUUUGUUACUGAAGGAGGUGGAAGAGGAGUUUAGGGUGAAAAGGAGGAAGGGAUGGACAGACCCAGGUGAGGAGUGGAAUUCUCGGGUGCCAA` is recorded as 1.08.
Under “RBNS enrichment (R)”, `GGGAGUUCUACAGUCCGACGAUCUCCCAUCCCCCGUCUGUCCACUAACUGUACCGCACCGGCCAUUAAAAGAUGAAGGCAGACCGCUGCACCGCCGCCUGCAAGCAGAGUUUGUGCGUGGACGGGGGCUGGGAUGGAAUUCUCGGGUGCCAA` is recorded as 0.369.
`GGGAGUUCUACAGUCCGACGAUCUCUUAUUCUUUGGUUUAAAUACUGAAACAUGAUUAAUUGCUAACUACAGCUUAGAAACCCAAUAUCAGUUGUACUUAACAUCUUUAAGAGCAUGAUCAUAAAGGCUAUUUUGGAAUUCUCGGGUGCCAA` — result for “RBNS enrichment (R)”: 0.479.
`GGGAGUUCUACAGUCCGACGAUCACAGAAUAACAAUCUUAUUUUCUAUUUGAUAACUAUGGUAUCAUAUUGGGUUACUGUAUAAGGAAAAUGGCAGGGGAGUUGUGGGAAGCUUGUCUUUACAAAAUAUAAUUUGGAAUUCUCGGGUGCCAA`: “RBNS enrichment (R)” 0.678.
Under “RBNS enrichment (R)”, `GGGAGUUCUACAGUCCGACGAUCACUUCCUAGGACUAAGUUUACUAAACUACACUGAAGCUAUUAUACUUUCUAGAUCAGAAAAAUUAUACACUACAGUUGAAGAGCUGAAUUCUACUAUGGAUGGAUGUUGUUGGAAUUCUCGGGUGCCAA` is recorded as 0.31.
